Results gathered from unrelated publications.
Every numbered part comes from another study and shows a few of its results, in no order. Substitutions count along the parent as printed.

Series 1
Target: PABPC1L2, full length, GST fusion (mouse, UniProt A0ABA7IW68)
Technique: RNAcompete
Form: RNA
Matrix: in vitro
Concentration: 20 nM
Notes: 7-mer, probes averaged, single round
Baseline: mean of 7-mers
Direction: higher = stronger binding
Endpoint: 7-mer Z-score
Target sequence (chain): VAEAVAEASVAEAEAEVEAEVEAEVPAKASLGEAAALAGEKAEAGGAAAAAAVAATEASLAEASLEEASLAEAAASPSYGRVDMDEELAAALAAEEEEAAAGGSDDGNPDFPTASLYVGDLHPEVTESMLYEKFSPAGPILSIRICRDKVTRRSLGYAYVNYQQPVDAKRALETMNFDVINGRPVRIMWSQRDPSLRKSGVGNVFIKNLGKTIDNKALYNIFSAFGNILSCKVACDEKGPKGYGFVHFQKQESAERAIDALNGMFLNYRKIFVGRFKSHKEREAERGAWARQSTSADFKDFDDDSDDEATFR
ACUCCCC: -0.306
UGCGGAU: -0.0591
GUCAGUG: -0.166
GAGCAUU: -0.0881
UGCGCGG: 0.0805
GUAGGAC: 0.184

Series 2
Target: Interferon regulatory factor 5, full length, phosphomimetic (IRF5, Homo sapiens, UniProt Q13568-2, residues 1-514, S451D/S453D/S456D/S462D)
Technique: protein-binding microarray
Form: double-stranded DNA, one strand shown
Matrix: in vitro
Concentration: 940 nM top
Notes: 60-bp whole probe
With: salmon DNA 0.4 mg/ml
Baseline: random background probes
Direction: higher = stronger binding
Endpoint: fitted relative affinity
Shared flanks, not repeated: GCCTAGCAC … GTCTTGATTCGCTTGACGCTGCTG
TTAGATATGAGTATCGATTAGTGCTAG: 4.24 z-score
GCATCTATCTTAAATAGGGACGTGCTA: -0.156 z-score
TCAGCTTCCTCTTTACTACTGTGCTAG: 1.1 z-score
GACGATATCAGGATCGAGACGTGCTAG: -0.157 z-score
GACGGTATCGGGCTGGGGACGTGCTAG: 3.14 z-score

Series 3
Target: CCNA1, cyclin fold, Cln2 fusion (human)
Technique: yeast growth competition, sequencing
Matrix: yeast
Notes: weak parent motif
Baseline: not given
Direction: higher = stronger binding
Endpoint: normalised enrichment score
Starting sequence: WEE1 docking peptide (human); HKTFRKLRLFDTP; partner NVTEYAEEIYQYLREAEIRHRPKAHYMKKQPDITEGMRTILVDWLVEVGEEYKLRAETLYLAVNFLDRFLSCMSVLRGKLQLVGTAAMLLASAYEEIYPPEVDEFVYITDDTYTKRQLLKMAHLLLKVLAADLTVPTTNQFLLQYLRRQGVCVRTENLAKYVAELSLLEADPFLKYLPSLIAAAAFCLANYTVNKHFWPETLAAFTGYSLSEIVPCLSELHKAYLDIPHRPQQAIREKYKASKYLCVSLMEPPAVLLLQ
AKTFRKLRLFDTP [H1A]: 0.298
HKTFTKLRLFDTP [R5T]: 0.233
HKTFRKLWLFDTP [R8W]: 0.323
HKTFRVLRLFDTP [K6V]: 0.105
HKTFRKLRLFDSP [T12S]: 0.754
HKTFRKWRLFDTP [L7W]: 0.276

Mixed results
PhoQ, residues 284 288 289 292 302 303 HSSMNL
fold induction (PhoP, residues 12 14 15 18 19 YHFSH (Escherichia coli, UniProt P23836); Sort-seq, refers to: YFP reporter; E. coli; PhoQ-PhoP variant library, with: 10 µM Mg2+; baseline: high Mg2+ state, higher = stronger signaling): 9.91
